Published values pooled from the literature.
Protocols differ between the studies behind these lines. Values joined by “and” are separate records of one study, mostly repeats; a detail may differ. ± gives the spread as reported.
ALB: Albumin (ALB, Homo sapiens, UniProt P02768)
uncharacterized protein: uncharacterized protein (Spodoptera exigua, UniProt F1CEY0)
Sequence of UniProt P51575 (whole entry, unmodified, looked up): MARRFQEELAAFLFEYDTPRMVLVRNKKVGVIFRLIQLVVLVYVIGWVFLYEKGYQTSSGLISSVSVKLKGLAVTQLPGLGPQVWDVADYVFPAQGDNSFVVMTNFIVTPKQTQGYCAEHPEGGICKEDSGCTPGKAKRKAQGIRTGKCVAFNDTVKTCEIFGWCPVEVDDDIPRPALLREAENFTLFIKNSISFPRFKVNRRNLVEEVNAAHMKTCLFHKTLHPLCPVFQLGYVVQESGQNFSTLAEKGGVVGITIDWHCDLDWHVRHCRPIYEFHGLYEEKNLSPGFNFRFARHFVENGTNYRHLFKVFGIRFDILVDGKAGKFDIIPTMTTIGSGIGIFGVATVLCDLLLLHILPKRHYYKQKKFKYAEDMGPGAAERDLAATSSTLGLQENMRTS
Sequence of UniProt P41250 (whole entry, looked up): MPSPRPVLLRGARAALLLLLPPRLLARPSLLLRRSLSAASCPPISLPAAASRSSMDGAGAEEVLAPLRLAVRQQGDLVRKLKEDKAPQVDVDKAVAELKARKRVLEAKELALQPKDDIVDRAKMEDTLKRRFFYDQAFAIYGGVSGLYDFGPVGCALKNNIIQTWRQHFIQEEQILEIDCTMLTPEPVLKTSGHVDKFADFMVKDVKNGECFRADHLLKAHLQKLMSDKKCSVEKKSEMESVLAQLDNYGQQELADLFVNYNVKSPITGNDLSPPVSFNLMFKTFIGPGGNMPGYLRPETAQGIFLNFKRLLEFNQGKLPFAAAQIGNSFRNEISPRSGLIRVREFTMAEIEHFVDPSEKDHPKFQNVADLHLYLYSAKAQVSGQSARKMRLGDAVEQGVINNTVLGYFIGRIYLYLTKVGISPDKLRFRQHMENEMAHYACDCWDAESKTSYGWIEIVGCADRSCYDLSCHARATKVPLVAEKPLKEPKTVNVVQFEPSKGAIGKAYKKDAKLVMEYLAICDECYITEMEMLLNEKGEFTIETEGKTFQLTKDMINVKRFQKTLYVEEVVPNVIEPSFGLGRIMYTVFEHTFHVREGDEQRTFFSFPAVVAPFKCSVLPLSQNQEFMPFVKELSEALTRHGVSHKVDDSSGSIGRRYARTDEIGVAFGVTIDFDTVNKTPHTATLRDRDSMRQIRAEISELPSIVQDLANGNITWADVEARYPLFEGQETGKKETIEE
Sequence of UniProt Q02127 (whole entry, looked up): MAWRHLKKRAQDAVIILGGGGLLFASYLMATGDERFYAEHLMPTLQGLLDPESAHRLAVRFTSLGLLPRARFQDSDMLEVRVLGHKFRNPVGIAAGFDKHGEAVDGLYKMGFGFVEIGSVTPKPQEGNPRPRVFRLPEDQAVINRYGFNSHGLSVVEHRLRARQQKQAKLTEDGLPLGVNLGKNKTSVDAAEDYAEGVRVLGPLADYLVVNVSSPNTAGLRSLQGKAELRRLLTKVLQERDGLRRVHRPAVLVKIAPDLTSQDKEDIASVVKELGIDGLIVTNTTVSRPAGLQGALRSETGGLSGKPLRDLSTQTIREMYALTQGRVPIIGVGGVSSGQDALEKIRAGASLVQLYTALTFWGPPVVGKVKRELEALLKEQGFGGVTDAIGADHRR
Sequence of UniProt Q99814 (whole entry, unmodified, looked up): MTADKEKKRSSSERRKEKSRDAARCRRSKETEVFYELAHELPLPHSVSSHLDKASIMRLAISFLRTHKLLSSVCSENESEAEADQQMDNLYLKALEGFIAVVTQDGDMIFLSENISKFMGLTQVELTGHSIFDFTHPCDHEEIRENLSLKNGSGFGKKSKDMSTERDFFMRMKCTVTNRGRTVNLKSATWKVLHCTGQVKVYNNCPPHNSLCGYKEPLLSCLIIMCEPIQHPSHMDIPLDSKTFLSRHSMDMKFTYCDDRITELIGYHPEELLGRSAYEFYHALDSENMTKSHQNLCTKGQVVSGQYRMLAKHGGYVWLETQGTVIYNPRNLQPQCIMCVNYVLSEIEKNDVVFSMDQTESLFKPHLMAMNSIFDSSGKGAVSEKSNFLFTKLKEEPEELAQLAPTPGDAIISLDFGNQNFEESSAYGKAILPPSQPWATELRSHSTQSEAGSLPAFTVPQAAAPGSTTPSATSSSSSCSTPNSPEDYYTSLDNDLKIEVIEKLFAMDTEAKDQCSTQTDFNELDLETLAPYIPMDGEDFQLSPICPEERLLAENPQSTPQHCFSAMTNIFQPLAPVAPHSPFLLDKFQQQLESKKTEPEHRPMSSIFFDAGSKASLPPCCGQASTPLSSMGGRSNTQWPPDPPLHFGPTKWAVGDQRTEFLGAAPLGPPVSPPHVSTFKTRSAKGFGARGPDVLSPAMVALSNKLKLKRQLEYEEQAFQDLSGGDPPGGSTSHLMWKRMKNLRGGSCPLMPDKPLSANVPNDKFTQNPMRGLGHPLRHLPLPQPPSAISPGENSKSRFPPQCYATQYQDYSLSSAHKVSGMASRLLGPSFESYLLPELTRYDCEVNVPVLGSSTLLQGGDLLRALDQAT
Sequence of UniProt P11388 (whole entry, looked up): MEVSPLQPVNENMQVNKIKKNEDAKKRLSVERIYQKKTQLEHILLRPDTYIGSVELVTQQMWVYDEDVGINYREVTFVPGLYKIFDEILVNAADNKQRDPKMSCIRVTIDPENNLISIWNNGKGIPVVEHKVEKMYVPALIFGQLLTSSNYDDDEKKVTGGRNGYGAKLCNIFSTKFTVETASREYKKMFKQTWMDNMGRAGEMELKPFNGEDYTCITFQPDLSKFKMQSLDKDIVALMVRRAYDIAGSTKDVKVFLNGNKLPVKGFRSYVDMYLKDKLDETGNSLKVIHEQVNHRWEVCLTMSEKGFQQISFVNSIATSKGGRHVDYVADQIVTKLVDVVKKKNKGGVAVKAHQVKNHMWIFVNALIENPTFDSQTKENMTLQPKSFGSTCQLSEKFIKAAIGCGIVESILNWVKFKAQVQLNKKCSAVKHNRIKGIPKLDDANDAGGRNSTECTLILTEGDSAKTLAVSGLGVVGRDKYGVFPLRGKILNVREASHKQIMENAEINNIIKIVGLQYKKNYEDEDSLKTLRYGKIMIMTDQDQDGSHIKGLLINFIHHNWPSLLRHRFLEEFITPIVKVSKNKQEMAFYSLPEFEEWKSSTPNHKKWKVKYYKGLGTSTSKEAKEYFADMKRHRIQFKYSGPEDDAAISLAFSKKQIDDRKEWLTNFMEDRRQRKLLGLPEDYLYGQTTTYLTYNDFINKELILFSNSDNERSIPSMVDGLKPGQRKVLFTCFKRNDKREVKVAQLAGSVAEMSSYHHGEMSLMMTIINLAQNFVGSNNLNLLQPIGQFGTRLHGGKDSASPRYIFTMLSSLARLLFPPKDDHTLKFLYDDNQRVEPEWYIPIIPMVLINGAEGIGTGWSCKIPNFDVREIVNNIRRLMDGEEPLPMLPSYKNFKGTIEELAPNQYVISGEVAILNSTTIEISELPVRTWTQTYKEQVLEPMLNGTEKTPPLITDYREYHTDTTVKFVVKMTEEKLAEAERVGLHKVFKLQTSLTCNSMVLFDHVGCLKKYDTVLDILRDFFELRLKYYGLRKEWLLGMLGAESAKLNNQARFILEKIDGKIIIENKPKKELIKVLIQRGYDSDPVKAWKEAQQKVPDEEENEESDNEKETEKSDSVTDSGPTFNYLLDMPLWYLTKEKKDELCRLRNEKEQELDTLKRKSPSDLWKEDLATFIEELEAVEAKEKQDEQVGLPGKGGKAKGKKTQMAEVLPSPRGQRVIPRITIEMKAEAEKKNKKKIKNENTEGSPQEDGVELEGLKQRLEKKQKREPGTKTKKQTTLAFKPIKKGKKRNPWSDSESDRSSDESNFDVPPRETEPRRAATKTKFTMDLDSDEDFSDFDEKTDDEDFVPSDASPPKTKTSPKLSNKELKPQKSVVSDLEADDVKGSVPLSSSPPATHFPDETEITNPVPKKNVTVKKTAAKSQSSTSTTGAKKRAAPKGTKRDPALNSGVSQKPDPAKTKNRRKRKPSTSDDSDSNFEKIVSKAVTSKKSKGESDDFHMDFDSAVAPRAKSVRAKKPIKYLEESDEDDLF
Sequence of UniProt Q16774 (whole entry, unmodified, looked up): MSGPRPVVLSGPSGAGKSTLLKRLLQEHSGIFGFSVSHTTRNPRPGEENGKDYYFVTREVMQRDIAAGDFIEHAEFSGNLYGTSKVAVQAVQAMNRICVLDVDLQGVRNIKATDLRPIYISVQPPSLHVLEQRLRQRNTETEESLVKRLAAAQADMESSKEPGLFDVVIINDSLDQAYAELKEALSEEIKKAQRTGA

Structure (SMILES)	target	test	test system	setting	how to read	measurement	result
CC[C@H](C)[C@@H]1NC(=O)[C@H](C)NC(=O)[C@H]([C@@H](C)CC)NC(=O)[C@H](CCC(N)=O)NC(=O)[C@H](C)NC(=O)[C@H](CCCNC(=N)N)NC(=O)[C@H](C(C)C)NC(=O)[C@H](CC(C)C)NC(=O)[C@H](CCC(=O)O)NC(=O)[C@H](CCCNC(=N)N)NC(=O)CNC(=O)[C@@H](NC(=O)[C@H](CC(C)C)NC(=O)[C@H](CCCCN)NC(=O)[C@@H](NC(=O)[C@@H](NC(=O)[C@H](CCC(=O)O)NC(=O)[C@H](CCC(=O)O)NC(=O)[C@H](CCSC)NC(=O)[C@H](Cc2c[nH]c3ccccc23)NC(=O)[C@H](CO)NC(=O)[C@@H](N)CC(=O)O)C(C)C)[C@@H](C)CC)CSSC[C@@H]2NC(=O)[C@@H](NC(=O)[C@H](CCCCN)NC(=O)[C@H](CC(N)=O)NC(=O)[C@H](C)NC(=O)[C@H](CC(C)C)NC(=O)[C@H](C)NC(=O)[C@H](CO)NC(=O)[C@H](Cc3ccc(O)cc3)NC(=O)[C@H](CC(C)C)NC(=O)[C@H](CCC(N)=O)NC(=O)c3ccc(-c4c5ccc(=[N+](C)C)cc-5oc5cc(N(C)C)ccc45)c(C(=O)[O-])c3)CSSC[C@H](NC(=O)CNC(=O)[C@H](C(C)C)NC(=O)[C@H](Cc3c[nH]cn3)NC2=O)C(=O)N[C@@H]([C@@H](C)O)C(=O)N[C@@H](CCCCN)C(=O)N[C@@H](CCCNC(=N)N)C(=O)N[C@@H](CO)C(=O)N[C@@H](CC(C)C)C(=O)N[C@@H](C)C(=O)N[C@@H](CCCNC(=N)N)C(=O)N[C@@H](Cc2ccccc2)C(=O)N[C@H](C(=O)O)CSSC[C@@H](C(=O)NCC(=O)N[C@@H](CCSC)C(=O)N[C@@H](CO)C(=O)N[C@H](C(=O)N[C@@H](Cc2c[nH]c3ccccc23)C(=O)N[C@@H](CO)C(=O)O)[C@@H](C)O)NC1=O	Relaxin receptor 1 (RXFP1, Homo sapiens, UniProt Q9HBX9, F76A/Y80A)	binding, NanoBRET		added: relaxin 10 µM		dissociation plateau	7.04%
OC[C@H]1O[C@@H](Oc2cc3c(O)cc(O)cc3[o+]c2-c2ccc(O)cc2)[C@H](O)[C@@H](O)[C@@H]1O	ALB	van't Hoff analysis		concentration not given		binding enthalpy change	-5.34 kcal/mol
CC/C=C\CC=O	uncharacterized protein	binding, 1-NPN competitive displacement		protein 2.0 µM, added: 1-NPN 20 µM	baseline: 1-NPN without compound, lower = stronger binding	relative fluorescence	66.9%
CCCNc1nc(C#Cc2ccc(Cl)s2)nc2c1ncn2[C@H]1[C@H](O)[C@H](O)[C@]2(C(=O)NC)C[C@H]12	Adenosine receptor A3 (ADORA3, Homo sapiens, UniProt P0DMS8)	receptor activation, agonist		10 µM	baseline: control	activity	158%
CC[C@H](C)[C@@H]1NC(=O)[C@H](Cc2ccc(-c3ccccc3)cc2)NC(=O)[C@H](CC(C)C)NC(=O)[C@@H]2CCCN2C(=O)[C@@H](NC(=O)[C@H](CCCNC(=N)N)NC(=O)[C@H](CCCNC(=N)N)NC(C)=O)CSSC[C@@H](C(=O)N[C@@H](CCCNC(=N)N)C(=O)N[C@@H](CCCNC(=N)N)C(N)=O)NC(=O)[C@H](CC2CCCCC2)NC(=O)[C@@H]2C[C@@H](OCC(=O)O)CN2C(=O)[C@H](CC(=O)O)NC(=O)[C@H](Cc2ccc(O)cc2)NC(=O)[C@H](CO)NC1=O	GTPase KRas, GDP-bound (KRAS, Homo sapiens, UniProt P01116, G12D)	affinity selection mass spectrometry		mixture library 4, added: protein titration up to 2.5 µM	lower is stronger binding	lowest bound protein concentration	0.08 µM
NC/C(=C\F)COc1cccc(Cn2c(=S)[nH]c(=O)c3[nH]cnc32)c1	Amine oxidase copper-containing 3 (Canis lupus familiaris, UniProt A0A8I3MYY3)	inhibitor	dog adipose tissue	1 µM		inhibition	102%
Nc1ncnc2c1ncn2[C@@H]1O[C@H](COP(=O)(O)CP(=O)(O)OP(=O)(O)O)[C@@H](O)[C@H]1O	P2X purinoceptor 1 (P2RX1, Homo sapiens, UniProt P51575, M214A)	saturation binding	HEK293	25 nM		specific binding	568 CCPM and 353 CCPM and 320 CCPM
Cc1cccc(N2CC(C(=O)O)CC2=O)c1 (stereo not shown)	DNA mismatch repair protein Msh6 (Homo sapiens, UniProt P52701)	binding, affinity selection mass spectrometry			baseline: other proteins in batch	log fold enrichment	-0.0471
COc1cc2c(cc1OC)-c1cc3ccc(OC)c(OC)c3c[n+]1CC2	lipase	inhibitor, Lineweaver-Burk		0.1 mM		Vmax	0.098 ΔA/min
CC(C)C[C@H](N)C(=O)Nc1ccc2ccccc2c1	Puromycin-sensitive aminopeptidase (Rattus norvegicus, UniProt F1M9V7)	substrate		MW 100 kDa		kcat	72.3 s⁻¹
Nc1nn(-c2ccccc2)nc1C(=O)O	Adenosine receptor A2a (ADORA2A, Homo sapiens, UniProt P29274)	binding, radioligand competition		10 µM, added: [3H]ZM241385		displacement	5 ± 4%
Cc1c(-c2ccc(-c3ccccc3F)cc2)nc2ccc(F)cc2c1C(=O)O	Dihydroorotate dehydrogenase (quinone), mitochondrial (DHODH, Homo sapiens, UniProt Q02127)	enzyme activity, inhibitor, DCIP reduction		0.005 µM	higher = more activity	reaction rate	-21.9 a.u.
O=C(O)CCCOc1cccc(CNC(=O)C#Cc2cn(Cc3ccc(C(=O)O)cc3)c(=O)[nH]c2=O)c1	Collagenase 3 (MMP13, Homo sapiens, UniProt P45452)	protease activity, FRET				log IC50	-8.24 ± 0.153
C=CC(=O)N1CCC[C@@H](n2nc(-c3ccc(Oc4ccccc4)cc3)c3c(N)ncnc32)C1	Ephrin type-A receptor 2 (EPHA2, Homo sapiens, UniProt P29317)			1 µM		remaining activity	110%
CCn1c(-c2nc3cc(C(=O)N4CCC[C@@H](N)C4)cc(OC)c3n2C)cc2cccnc21	Protein-arginine deiminase type-2 (PADI2, Homo sapiens, UniProt Q9Y2J8)	mixed inhibitor		added: BAEE substrate, 10 mM CaCl2		Ki'	1130 ± 150 µM
CCCC[C@H](NC(=O)[C@H](C)c1c(C)[nH]c2ccc(O)cc12)c1ncc(-c2cc3ccccc3nc2OC)[nH]1	Prostaglandin F2-alpha receptor (PTGFR, Homo sapiens, UniProt P43088)			10 µM		effect	50%

Structure (SMILES)	target	test	test system	setting	how to read	measurement	result
Nc1ncnc2c1ncn2[C@@H]1O[C@H](COP(=O)(O)OP(=O)(O)O)[C@@H](O)[C@H]1O	GUK1 (Homo sapiens, UniProt Q16774, R137A)	binding, ITC				ΔG	-5.33 kcal/mol
Cc1occc(=O)c1[O-].[Cl-].[W+4].c1cc[cH-]c1.c1cc[cH-]c1	ALB	fluorescence quenching		317 K		Stern-Volmer quenching constant	16600 L/mol
Cc1ccc(S(=O)(=O)NNc2ccc([N+](=O)[O-])cc2[N+](=O)[O-])cc1	Prostaglandin G/H synthase 2 (PTGS2, Homo sapiens, UniProt P35354)				baseline: COX-1 IC50 over COX-2 IC50	selectivity ratio	41
CC[C@H](C)[C@@H]1NC(=O)[C@H]([C@@H](C)O)NC(=O)[C@@H]2CCCN2C(=O)[C@@H](NC(=O)CN)CSSC[C@@H]2NC(=O)CNC(=O)[C@H](C)NC(=O)[C@H](CC(C)C)NC(=O)[C@@H]3CSSC[C@@H](C(=O)NCC(=O)O)NC(=O)[C@H](Cc4ccccc4)NC(=O)CNC(=O)[C@H](CC(N)=O)NC(=O)[C@@H]4CCCN4C(=O)CNC(=O)[C@H](CSSC[C@H](NC(=O)[C@H](CCCNC(=N)N)NC(=O)[C@H](CCC(N)=O)NC(=O)[C@H](CCCNC(=N)N)NC(=O)[C@H](CCCCN)NC(=O)[C@H](C(C)C)NC(=O)[C@H](Cc4c[nH]cn4)NC(=O)[C@H](CC(N)=O)NC1=O)C(=O)N[C@@H](CCCCN)C(=O)N[C@@H](CCC(N)=O)C(=O)N[C@@H](CC(=O)O)C(=O)N[C@@H](CO)C(=O)N[C@@H](CC(=O)O)C(=O)N3)NC(=O)[C@H](C(C)C)NC2=O	Low-density lipoprotein receptor-related protein 6, E1 domain (LRP6, Homo sapiens, UniProt O75581)	binding, SPR		pH 7.5		kon	1.45e+06 ± 290000 M⁻¹ s⁻¹
CC(=O)OCCC(C)C	uncharacterized protein	binding, competitor, fluorescence displacement		20 µM, pH 7.4, added: 1-NPN 20 µM	baseline: 1-NPN alone	relative fluorescence	76.5%
O=C(O)c1ccc(Nc2ncc3c(n2)-c2ccc(Cl)cc2C(c2c(F)cccc2F)=NC3)cc1	human DAPK1(h)	kinase activity		1 µM		remaining activity	114%
O=C(COP(=O)(O)O)[C@@H](O)[C@H](O)[C@H](O)COP(=O)(O)O	Glycine--tRNA ligase (Homo sapiens, UniProt P41250)	thermal proteome profiling, refers to: GARS	HepG2 cell lysate	concentration not given, 57 over 37 °C	baseline: compound over control	thermal stability ratio	0.639 and 0.543 and 0.603
O=C(NO)c1ccc(CN2CCCCc3ccccc32)c(F)c1	Histamine H2 receptor (HRH2, Homo sapiens, UniProt P25021)	radioligand binding, radioligand displacement		10 µM		inhibition	-9.17%
C=CC(=O)N1CCC(COCC(=O)N2CCN(c3nc(-c4cnc(N)nc4C(F)F)nc(N4CCOC[C@@H]4C)n3)CC2)CC1	SNF-related serine/threonine-protein kinase (SNRK, Homo sapiens, UniProt Q9NRH2)	KINOMEscan		1 µM		remaining binding	87%
Cc1cc(-c2ccnc3[nH]cc(F)c23)cc(F)c1[C@@]1(O)[C@H](C)CN(C2CCS(=O)(=O)CC2)C[C@@H]1C	Tyrosine-protein kinase JAK1 (JAK1, Homo sapiens, UniProt P23458)	ATP/ADP probe binding, KiNativ	HEK293T lysate	1 µM, activation loop domain 2		probe labelling inhibition	15.5%
CCCCC[C@H](O)/C=C/[C@H]1C(=O)C[C@H](O)[C@@H]1C/C=C\CCCC(=O)O	Prostaglandin D2 receptor (PTGDR, Homo sapiens, UniProt Q13258, K76R)	Gs protein activation, agonist, BRET				Emax	82 ± 7%
OC[C@H]1O[C@@H](Oc2cc3c(O)cc(O)cc3[o+]c2-c2ccc(O)c(O)c2)[C@H](O)[C@@H](O)[C@@H]1O	ALB	binding, visible absorption		50 µM, pH 7, added: HSA up to 200 µM	baseline: without HSA	bathochromic shift	58 nm
O=c1nc(SCc2ccc(C(F)(F)F)cc2)nc(SCc2csc3ccc(Cl)cc23)[nH]1	DNA topoisomerase 2-alpha (TOP2A, Homo sapiens, UniProt P11388)	DNA relaxation		1.95 µM, replicate 2		relaxed DNA	95.9%
O=[N+]([O-])c1cc(C(F)(F)F)ccc1NCc1ccco1	Endothelial PAS domain-containing protein 1, PAS-B domain (EPAS1, Homo sapiens, UniProt Q99814, N288A)	ZZ-exchange NMR		25 °C		koff	3.37 ± 0.17 s⁻¹
COc1cccc(F)c1-c1ccc(C(=O)NC[C@@H](N)C(=O)O)s1	Glutamate receptor ionotropic, NMDA 1, with GluN2C (Grin1, Rattus norvegicus, UniProt P35439)			added: glutamate 300 µM		Hill slope	1.57

For quick reference, copied from above:
Structure (SMILES)	target	test	test system	setting	how to read	measurement	result
Cc1ccc(S(=O)(=O)NNc2ccc([N+](=O)[O-])cc2[N+](=O)[O-])cc1	Prostaglandin G/H synthase 2 (PTGS2, Homo sapiens, UniProt P35354)				baseline: COX-1 IC50 over COX-2 IC50	selectivity ratio	41
COc1cccc(F)c1-c1ccc(C(=O)NC[C@@H](N)C(=O)O)s1	Glutamate receptor ionotropic, NMDA 1, with GluN2C (Grin1, Rattus norvegicus, UniProt P35439)			added: glutamate 300 µM		Hill slope	1.57
